Results pooled from the literature.
A part holds a random share of what one study measured.
Chain of UniProt P50750 (whole entry, looked up): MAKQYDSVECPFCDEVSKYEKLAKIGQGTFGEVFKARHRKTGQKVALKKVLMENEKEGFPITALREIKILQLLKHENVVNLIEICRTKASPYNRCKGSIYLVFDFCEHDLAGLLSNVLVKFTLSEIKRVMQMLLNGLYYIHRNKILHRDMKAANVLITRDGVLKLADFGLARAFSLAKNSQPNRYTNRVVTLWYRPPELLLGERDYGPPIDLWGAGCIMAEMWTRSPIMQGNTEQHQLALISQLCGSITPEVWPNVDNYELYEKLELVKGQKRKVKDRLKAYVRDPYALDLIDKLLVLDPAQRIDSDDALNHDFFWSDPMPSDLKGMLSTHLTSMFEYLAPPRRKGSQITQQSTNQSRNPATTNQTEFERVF
Chain of UniProt O75914 (whole entry, looked up): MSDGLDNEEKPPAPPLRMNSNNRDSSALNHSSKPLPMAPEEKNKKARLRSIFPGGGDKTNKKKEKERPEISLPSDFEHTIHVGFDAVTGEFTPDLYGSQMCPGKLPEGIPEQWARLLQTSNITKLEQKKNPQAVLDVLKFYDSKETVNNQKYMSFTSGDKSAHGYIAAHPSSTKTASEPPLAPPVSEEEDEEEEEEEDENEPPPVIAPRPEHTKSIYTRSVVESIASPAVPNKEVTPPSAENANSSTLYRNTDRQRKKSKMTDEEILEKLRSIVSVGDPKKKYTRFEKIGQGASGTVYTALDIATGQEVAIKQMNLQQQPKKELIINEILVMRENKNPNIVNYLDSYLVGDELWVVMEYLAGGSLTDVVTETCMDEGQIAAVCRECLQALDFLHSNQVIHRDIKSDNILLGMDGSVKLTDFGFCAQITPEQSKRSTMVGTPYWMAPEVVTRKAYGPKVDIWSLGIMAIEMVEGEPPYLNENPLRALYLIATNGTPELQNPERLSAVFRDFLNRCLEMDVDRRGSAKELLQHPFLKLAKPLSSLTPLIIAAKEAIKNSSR
Chain of UniProt P06493 (whole entry, looked up): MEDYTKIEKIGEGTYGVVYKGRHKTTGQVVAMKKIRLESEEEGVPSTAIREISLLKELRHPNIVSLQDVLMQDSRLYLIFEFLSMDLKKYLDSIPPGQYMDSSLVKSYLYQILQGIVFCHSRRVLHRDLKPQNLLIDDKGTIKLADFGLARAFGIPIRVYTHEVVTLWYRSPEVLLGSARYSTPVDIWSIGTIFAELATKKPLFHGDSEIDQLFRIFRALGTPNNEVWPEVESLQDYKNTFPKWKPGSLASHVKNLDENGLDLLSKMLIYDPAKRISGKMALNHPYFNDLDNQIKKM
Chain of UniProt Q86UE8 (whole entry, looked up): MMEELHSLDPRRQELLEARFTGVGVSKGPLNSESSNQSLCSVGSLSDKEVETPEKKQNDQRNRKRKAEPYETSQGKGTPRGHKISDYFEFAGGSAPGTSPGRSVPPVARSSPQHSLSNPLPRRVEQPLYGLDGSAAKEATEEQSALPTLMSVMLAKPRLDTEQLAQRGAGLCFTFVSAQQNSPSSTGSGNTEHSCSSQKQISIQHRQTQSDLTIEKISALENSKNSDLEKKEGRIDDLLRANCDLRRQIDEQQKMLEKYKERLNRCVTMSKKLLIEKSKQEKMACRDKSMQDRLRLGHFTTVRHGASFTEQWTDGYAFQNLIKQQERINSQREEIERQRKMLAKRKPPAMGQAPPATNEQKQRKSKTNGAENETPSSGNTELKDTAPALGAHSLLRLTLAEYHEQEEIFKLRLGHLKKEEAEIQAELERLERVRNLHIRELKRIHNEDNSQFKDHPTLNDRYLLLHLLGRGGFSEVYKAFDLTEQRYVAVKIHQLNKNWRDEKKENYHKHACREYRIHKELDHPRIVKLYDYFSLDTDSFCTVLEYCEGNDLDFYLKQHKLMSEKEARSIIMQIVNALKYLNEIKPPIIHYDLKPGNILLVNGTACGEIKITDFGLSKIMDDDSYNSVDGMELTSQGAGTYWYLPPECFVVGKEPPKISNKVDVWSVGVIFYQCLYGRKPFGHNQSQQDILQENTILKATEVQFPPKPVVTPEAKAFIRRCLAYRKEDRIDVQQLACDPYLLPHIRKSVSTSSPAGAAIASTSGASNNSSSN
Chain of UniProt Q8N4C8 (whole entry, looked up): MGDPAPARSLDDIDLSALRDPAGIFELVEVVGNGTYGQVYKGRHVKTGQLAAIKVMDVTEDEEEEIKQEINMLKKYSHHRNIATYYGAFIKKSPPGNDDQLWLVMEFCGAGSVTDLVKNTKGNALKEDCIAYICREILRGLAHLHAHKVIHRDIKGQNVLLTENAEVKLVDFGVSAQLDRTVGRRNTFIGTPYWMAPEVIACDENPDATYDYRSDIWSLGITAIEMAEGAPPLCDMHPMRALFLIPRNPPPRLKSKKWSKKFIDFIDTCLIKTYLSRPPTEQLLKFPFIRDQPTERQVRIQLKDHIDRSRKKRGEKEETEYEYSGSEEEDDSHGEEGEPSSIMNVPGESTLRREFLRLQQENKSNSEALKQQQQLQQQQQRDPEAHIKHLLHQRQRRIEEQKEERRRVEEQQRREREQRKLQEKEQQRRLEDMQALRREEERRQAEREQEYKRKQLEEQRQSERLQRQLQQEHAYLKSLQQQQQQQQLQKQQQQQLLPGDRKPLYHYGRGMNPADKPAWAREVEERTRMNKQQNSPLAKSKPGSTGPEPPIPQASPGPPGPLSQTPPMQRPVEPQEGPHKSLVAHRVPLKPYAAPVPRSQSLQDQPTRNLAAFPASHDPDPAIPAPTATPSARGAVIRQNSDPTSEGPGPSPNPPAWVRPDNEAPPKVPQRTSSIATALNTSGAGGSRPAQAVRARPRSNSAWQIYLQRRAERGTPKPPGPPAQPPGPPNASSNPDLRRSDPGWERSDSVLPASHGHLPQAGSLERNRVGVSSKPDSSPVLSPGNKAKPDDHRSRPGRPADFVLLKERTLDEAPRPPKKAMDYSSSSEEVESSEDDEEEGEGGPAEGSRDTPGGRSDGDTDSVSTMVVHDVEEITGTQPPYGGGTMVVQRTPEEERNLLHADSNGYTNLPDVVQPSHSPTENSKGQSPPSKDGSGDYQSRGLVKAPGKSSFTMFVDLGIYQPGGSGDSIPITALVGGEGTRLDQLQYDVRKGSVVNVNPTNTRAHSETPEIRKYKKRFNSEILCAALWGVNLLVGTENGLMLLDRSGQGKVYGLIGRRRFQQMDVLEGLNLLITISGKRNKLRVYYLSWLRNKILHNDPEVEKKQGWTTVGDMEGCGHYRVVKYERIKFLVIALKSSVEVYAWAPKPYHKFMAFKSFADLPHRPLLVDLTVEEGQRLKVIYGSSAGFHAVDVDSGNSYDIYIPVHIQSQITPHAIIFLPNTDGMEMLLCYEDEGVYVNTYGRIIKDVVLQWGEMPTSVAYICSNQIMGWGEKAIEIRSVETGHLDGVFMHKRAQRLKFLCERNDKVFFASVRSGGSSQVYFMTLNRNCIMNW
Chain of UniProt Q96L34 (whole entry, looked up): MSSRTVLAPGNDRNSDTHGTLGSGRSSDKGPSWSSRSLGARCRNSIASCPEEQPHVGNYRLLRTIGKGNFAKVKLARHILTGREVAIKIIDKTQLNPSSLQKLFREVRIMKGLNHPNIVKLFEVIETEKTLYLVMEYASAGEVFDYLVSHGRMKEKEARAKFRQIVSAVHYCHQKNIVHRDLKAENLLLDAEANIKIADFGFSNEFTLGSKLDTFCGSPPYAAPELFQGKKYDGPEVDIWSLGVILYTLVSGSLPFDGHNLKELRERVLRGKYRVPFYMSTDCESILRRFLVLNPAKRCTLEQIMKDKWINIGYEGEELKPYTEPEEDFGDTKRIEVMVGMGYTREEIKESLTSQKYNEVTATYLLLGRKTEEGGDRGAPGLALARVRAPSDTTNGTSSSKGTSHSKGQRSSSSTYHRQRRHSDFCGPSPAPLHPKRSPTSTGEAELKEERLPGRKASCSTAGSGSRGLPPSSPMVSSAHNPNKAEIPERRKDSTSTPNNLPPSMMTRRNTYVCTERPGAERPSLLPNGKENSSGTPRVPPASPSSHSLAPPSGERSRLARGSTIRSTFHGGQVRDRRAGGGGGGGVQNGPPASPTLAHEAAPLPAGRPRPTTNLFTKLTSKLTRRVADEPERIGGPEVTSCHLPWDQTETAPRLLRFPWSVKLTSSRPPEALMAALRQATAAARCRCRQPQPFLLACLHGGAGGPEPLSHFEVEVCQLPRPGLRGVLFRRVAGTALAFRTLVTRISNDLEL
Chain of UniProt P49761 (whole entry, looked up): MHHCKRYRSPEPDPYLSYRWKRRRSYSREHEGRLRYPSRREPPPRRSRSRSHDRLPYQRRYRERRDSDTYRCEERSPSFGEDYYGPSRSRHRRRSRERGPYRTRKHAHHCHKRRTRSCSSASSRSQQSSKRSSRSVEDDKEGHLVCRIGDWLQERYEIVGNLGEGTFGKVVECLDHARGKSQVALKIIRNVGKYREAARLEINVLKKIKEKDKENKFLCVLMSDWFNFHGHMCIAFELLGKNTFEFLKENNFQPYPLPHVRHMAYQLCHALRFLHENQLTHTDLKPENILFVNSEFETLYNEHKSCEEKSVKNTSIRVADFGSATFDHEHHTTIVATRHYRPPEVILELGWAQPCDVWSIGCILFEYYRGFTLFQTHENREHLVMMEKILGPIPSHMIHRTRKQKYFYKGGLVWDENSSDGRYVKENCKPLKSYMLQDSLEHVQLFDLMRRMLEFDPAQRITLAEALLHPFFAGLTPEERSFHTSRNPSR

Sample 1
SMILES: CC(C)n1cnc(-c2ccc(F)cc2)c1-c1ncc(C(=O)Nc2ccc(N3CCN(C)CC3)cc2)[nH]1
Technique: phase 2a clinical trial
Species: patients with idiopathic pulmonary fibrosis
measured	dose	setting	patients with treatment-emergent adverse events [%]
electrocardiogram T wave abnormal	30 mg once daily	Grade 4	0
interstitial lung disease	30 mg once daily	Grade 2	0
idiopathic pulmonary fibrosis	dose not given	Grade 1, all drug arms	0
lumbar vertebral fracture	60 mg once daily	Grade 2, maximum intensity	0
lumbar vertebral fracture	30 mg once daily	Grade 5, maximum intensity	0
first degree atrioventricular block	dose not given	Grade 4, all drug arms	0
electrocardiogram high voltage	30 mg once daily	Grade 1	0
investigations (SOC)	dose not given	Grade 5, all drug arms total	0
left ventricular dysfunction	dose not given	Grade 3, all drug arms	0
carbon dioxide decreased	dose not given	Grade 5, all drug arms total	0
carbon dioxide decreased	30 mg once daily	Grade 5	0
electrocardiogram T wave abnormal	60 mg once daily	Grade 5	0

Sample 2
Species: mouse
Sample: microsomes or S9
Tested at: 2 µM
Time: 0.5 h
SMILES	remaining compound
CCOC(=O)N1CCN(C(=O)c2cn(C)c(=O)cc2OC)CC1	97.3%
NC(=O)COc1ccc(-c2nc(-c3ccccc3)no2)cc1	11.1%
CC(=O)OC/C=C/CCCC/C=C/COC(C)=O	> 99.9%
Cc1nn(-c2ccccc2)c2nc3c(cc12)C(=O)CC(c1cccs1)C3 (stereo not drawn)	7.21%
Cc1nnc2c(Nc3cccc(CNC(=O)OC(C)(C)C)c3)nc3cc(C(=O)Nc4ccccc4)ccc3n12	92%
CCN(CC)S(=O)(=O)c1cc(Br)cnc1N	10.3%
CCc1nn(C)c(Cl)c1CN1CCc2cc(F)c(F)cc21	93.3%
Clc1ccccc1C1(c2ccnc(Cn3cncn3)n2)CCNCC1	44.4%
CCN(CC)CCCNc1oc(-c2ccco2)nc1S(=O)(=O)c1ccc2c(c1)OCCO2	31.6%
COc1ccc(Cc2nc3c4cnn(-c5cc(Cl)ccc5Cl)c4ncn3n2)cc1	< 1%
C[S+]([O-])c1nc2ccc(F)cc2c(-n2ccnc2)c1-c1ccc(Cl)cc1Cl (stereo not drawn)	> 100%
CCN(CC)c1cc(CCC(=O)N(C)CCCc2c(C)nn(C)c2C)ccn1	9.29%
COc1cc(=O)n(C)cc1C(=O)N1CCc2[nH]c(=O)c(C#N)cc2C1	80.1%

Sample 3
Target: D(2) dopamine receptor (DRD2, Homo sapiens, UniProt P14416)
Chain of UniProt P14416 (whole entry, looked up): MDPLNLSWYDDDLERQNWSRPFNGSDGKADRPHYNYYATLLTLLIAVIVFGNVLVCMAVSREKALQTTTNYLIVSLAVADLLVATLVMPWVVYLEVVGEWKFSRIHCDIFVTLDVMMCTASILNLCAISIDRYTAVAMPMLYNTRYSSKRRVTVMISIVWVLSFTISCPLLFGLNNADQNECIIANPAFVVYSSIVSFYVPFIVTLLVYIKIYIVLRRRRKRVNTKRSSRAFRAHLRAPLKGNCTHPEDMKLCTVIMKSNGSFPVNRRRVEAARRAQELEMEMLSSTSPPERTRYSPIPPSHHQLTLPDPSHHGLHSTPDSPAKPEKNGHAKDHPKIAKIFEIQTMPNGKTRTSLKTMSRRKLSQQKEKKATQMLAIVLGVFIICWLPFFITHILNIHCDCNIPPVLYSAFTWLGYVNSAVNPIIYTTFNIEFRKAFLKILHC
Observed: ligand displacement
Tested at: 10 µM
Structure (SMILES)	inhibition [%]
CN1CCN(c2cnc3c(C4CCN(C(=O)c5ccc(OC(F)(F)F)cc5N)CC4)ncnc3c2)CC1	-10.4
CC1=C(C#N)C(c2ccc3[nH]nc(C)c3c2)C(C#N)=C(C)N1	-7.07
Cc1c(NC(=O)c2cc(C(N)=O)nc3cc(F)ccc23)c(C(F)(F)F)nn1Cc1ccc(C#N)cc1	8.73
CC[C@H](CC(=O)O)n1c(=O)c2ncccc2n(Cc2cn(C)c3cc(C)cc(C)c23)c1=O	0.91
O=S(=O)(NC1CCC(c2cc(F)ccc2F)(S(=O)(=O)c2ccc(Cl)cc2)CC1)C(F)(F)F (stereo not drawn)	11.4
COCCOc1nc(-c2ccc(Cl)nc2)nc2c1CN(C(=O)c1ncn3ccccc13)CC2	-32.5
O=C(NS(=O)(=O)c1ccc(NCC2CCOCC2)c([N+](=O)[O-])c1)c1ccc(N2CCN(Cc3ccc(C(F)(F)F)cc3-c3ccc(Cl)cc3)CC2)cc1Oc1cnc2[nH]ccc2c1	-22.4
CC(=O)Nc1ncc(CN2CCC[C@H](Cc3cc(C)nc(C)c3)C2)s1	0.63
O=C(N[C@H]1CCCCC/C=C\C2C[C@@]2(C(=O)O)NC(=O)[C@@H]2C[C@@H](Oc3ccncc3)CN2C1=O)OC1CCCC1 (stereo partly drawn)	-17
C[C@@H]1CN(c2cc(-c3n[nH]c4ccc(OC5(C)CC5)cc34)ncn2)C[C@H](C)O1	-14.4
CN1CCN(c2ccnc(NCCc3ccccc3)n2)CC1	20.6

Sample 4
SMILES: c1ccc2c(-c3ccncc3)c[nH]c2c1
Observed: enzyme activity
Action: inhibitor
Tested at: 0.5 µM
Reference: control
target	remaining activity [%]
MAPK14 (Homo sapiens, UniProt Q16539)	104
Cyclin-dependent kinase 9, with cyclin K (CDK9, Homo sapiens, UniProt P50750)	91.2
CDC42BPB (Homo sapiens, UniProt Q9Y5S2)	104
DDR2 (Homo sapiens, UniProt Q16832)	92.6
PAK3 (Homo sapiens, UniProt O75914)	102
MINK1 (Homo sapiens, UniProt Q8N4C8)	84.6
MARK4 (Homo sapiens, UniProt Q96L34)	94.7
MET (Homo sapiens, UniProt P08581)	91.4
TLK2 (Homo sapiens, UniProt Q86UE8)	95.8
CLK3 (Homo sapiens, UniProt P49761)	92.6
ROCK1 (Homo sapiens, UniProt Q13464)	84.2
PLK3 (Homo sapiens, UniProt Q9H4B4)	95.3
RPS6KA4 (Homo sapiens, UniProt O75676)	91
Cyclin-dependent kinase 1, with cyclin A (CDK1, Homo sapiens, UniProt P06493)	90.6
Myosin-IIIb (MYO3B, Homo sapiens, UniProt Q8WXR4)	96.4
